{"data": "Experimental data pooled from the literature", "note": "Each numbered part is a random draw from the data of one study; scales do not carry over between parts.", "UniProt P50750, sequence (whole entry, looked up)": "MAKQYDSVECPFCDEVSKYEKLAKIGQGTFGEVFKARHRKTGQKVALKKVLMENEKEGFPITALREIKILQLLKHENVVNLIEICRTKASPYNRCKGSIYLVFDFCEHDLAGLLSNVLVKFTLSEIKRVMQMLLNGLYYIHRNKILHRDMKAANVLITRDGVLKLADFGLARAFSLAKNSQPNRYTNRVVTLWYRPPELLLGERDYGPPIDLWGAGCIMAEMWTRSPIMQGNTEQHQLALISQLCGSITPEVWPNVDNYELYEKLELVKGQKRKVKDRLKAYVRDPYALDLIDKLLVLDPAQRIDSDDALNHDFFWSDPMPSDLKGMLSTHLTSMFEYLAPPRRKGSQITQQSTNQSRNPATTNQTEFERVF", "UniProt Q9Y243, sequence (whole entry, looked up)": "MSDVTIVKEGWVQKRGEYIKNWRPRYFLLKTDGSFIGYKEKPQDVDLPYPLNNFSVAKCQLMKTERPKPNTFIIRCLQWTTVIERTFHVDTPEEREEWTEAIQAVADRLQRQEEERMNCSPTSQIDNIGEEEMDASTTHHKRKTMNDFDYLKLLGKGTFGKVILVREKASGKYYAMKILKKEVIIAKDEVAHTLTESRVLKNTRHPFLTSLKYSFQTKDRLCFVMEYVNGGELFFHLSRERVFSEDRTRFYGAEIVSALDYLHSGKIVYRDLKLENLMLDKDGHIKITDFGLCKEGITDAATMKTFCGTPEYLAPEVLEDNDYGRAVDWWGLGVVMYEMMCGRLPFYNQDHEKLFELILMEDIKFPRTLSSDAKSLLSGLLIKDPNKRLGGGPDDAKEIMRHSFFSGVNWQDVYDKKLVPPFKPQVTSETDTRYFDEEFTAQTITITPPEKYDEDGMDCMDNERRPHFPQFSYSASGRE", "UniProt O96013, sequence (whole entry, looked up)": "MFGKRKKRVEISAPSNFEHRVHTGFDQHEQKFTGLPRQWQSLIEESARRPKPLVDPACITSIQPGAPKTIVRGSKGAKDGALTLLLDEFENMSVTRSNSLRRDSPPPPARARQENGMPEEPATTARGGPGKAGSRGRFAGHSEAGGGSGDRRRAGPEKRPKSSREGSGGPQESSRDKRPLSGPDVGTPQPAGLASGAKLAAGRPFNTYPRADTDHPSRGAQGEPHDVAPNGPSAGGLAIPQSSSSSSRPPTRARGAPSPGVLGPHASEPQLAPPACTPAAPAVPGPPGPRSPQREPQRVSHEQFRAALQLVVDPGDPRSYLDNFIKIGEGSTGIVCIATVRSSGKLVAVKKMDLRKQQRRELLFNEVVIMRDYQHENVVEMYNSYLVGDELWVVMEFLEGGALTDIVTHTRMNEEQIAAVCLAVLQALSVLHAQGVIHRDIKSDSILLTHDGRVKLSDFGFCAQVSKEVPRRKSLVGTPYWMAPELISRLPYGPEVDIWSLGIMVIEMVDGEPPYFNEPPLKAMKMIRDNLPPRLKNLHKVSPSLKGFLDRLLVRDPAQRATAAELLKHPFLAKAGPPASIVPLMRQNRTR", "UniProt O43283, sequence (whole entry, looked up)": "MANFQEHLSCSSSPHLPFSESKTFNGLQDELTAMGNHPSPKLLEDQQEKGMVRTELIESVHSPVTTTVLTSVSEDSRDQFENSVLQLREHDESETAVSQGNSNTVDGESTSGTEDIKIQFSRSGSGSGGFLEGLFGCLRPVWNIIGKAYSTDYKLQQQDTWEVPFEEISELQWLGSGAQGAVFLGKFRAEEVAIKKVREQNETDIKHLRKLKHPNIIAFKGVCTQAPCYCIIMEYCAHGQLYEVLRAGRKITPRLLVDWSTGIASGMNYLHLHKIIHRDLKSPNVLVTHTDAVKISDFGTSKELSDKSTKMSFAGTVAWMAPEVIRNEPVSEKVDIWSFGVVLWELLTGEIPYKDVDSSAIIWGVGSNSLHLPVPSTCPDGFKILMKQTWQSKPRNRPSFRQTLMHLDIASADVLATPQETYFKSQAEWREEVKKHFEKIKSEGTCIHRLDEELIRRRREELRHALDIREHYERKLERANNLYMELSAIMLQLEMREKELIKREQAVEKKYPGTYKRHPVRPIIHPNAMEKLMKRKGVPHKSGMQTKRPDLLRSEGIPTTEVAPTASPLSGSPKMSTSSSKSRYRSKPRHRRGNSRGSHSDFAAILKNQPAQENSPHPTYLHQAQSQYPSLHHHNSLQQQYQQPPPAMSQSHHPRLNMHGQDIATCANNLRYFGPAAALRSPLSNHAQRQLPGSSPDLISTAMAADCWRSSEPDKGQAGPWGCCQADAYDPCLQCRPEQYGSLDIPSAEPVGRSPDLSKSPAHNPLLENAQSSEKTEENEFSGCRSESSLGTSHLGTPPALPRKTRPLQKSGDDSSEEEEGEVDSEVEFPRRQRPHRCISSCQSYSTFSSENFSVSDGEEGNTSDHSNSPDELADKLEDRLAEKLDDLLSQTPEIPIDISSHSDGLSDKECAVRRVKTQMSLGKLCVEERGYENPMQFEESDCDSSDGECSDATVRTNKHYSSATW", "UniProt Q15418, sequence (whole entry, looked up)": "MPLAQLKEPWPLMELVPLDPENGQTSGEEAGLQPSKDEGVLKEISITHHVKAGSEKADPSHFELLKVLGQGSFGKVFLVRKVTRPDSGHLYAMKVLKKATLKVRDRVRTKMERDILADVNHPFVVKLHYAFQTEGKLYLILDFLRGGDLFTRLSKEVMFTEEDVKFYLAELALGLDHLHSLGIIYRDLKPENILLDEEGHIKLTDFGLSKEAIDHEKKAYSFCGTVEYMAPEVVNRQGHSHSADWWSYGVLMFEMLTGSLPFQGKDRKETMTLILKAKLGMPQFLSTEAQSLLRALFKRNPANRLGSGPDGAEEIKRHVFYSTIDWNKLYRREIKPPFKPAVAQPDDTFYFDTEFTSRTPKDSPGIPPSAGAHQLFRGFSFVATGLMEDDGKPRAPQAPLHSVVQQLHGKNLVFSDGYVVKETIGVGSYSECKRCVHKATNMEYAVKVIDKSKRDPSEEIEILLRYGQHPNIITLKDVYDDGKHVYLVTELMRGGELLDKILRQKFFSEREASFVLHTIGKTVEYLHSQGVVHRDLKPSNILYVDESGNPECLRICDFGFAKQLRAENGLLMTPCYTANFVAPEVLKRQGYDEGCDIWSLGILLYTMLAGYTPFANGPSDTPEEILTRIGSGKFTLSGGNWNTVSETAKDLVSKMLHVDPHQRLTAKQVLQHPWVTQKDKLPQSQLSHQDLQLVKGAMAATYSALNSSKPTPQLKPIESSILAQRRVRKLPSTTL", "UniProt Q9BXA7, sequence (whole entry, looked up)": "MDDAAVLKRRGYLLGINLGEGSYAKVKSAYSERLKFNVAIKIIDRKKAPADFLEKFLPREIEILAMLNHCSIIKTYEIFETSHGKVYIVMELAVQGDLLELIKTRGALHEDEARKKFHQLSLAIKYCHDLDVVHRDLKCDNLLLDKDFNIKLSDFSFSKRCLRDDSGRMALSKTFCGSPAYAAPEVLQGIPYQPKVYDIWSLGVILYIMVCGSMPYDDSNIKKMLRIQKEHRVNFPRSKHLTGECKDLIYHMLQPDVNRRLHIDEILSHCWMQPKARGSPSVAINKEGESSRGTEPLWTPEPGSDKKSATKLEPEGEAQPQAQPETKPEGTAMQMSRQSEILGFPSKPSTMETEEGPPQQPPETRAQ"}
{"data": "Block 1", "target": "Calcium/calmodulin-dependent protein kinase type II subunit alpha (CAMK2A, Homo sapiens, UniProt Q9UQM7)", "read-out": "enzyme activity", "action": "inhibitor", "concentration": "10 µM", "UniProt Q9UQM7, sequence (whole entry, looked up)": "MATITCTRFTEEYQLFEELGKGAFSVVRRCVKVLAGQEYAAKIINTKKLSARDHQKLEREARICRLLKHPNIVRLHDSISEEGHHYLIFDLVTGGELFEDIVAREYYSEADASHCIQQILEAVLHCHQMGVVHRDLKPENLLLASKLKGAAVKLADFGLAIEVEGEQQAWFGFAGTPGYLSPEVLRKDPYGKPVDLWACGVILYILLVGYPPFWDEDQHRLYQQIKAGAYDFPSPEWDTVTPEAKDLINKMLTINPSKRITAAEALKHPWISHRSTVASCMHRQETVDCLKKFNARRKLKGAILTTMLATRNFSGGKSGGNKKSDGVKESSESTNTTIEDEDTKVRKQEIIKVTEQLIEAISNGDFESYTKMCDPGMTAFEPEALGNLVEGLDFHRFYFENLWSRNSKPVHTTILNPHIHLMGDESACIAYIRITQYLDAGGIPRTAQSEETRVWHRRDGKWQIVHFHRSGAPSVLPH"}
{"Compound": "O=C1c2cccc(O)c2C(=O)c2c(O)cccc21", "inhibition": "8%"}
{"Compound": "CCCc1nc(C(C)(C)O)c(C(=O)O)n1Cc1ccc(-c2ccccc2-c2nnn[nH]2)cc1", "inhibition": "6%"}
{"Compound": "COC(=O)[C@@H](Cc1ccc(O)c(O)c1)OC(=O)/C=C/c1ccc(O)c(O)c1", "inhibition": "-17%"}
{"Compound": "CCC/C=C1\\OC(=O)C2=C1CC[C@H](O)[C@H]2O", "inhibition": "44%"}
{"Compound": "O=C(O)c1cc(O)ccc1O", "inhibition": "31%"}
{"data": "Block 2", "SMILES": "O=C(Nc1cccnn1)N1CCC(=Cc2cccc(Oc3ccc(C(F)(F)F)cn3)c2)CC1", "read-out": "cell-free assay", "technique": "competition with immobilised ligand", "concentration": "1 µM"}
{"target": "Mitogen-activated protein kinase kinase kinase kinase 4 (MAP4K4, Homo sapiens, UniProt O95819)", "remaining binding": "100%"}
{"target": "Ribosomal protein S6 kinase alpha-1, C-terminal kinase domain (RPS6KA1, Homo sapiens, UniProt Q15418)", "remaining binding": "100%"}
{"target": "Serine/threonine-protein kinase PAK 3 (PAK3, Homo sapiens, UniProt O75914)", "remaining binding": "73%"}
{"target": "TGF-beta receptor type-2 (TGFBR2, Homo sapiens, UniProt P37173)", "remaining binding": "76%"}
{"target": "Epidermal growth factor receptor (EGFR, Homo sapiens, UniProt P00533)", "remaining binding": "100%"}
{"target": "Cyclin-dependent kinase 8 (CDK8, Homo sapiens, UniProt P49336)", "remaining binding": "100%"}
{"target": "Tyrosine-protein kinase ABL1, phosphorylated (ABL1, Homo sapiens, UniProt P00519, T315I)", "remaining binding": "76%"}
{"target": "RAC-gamma serine/threonine-protein kinase (AKT3, Homo sapiens, UniProt Q9Y243)", "remaining binding": "100%"}
{"target": "G protein-coupled receptor kinase 4 (GRK4, Homo sapiens, UniProt P32298)", "remaining binding": "97%"}
{"target": "Testis-specific serine/threonine-protein kinase 1 (TSSK1B, Homo sapiens, UniProt Q9BXA7)", "remaining binding": "82%"}
{"target": "Serine/threonine-protein kinase PAK 4 (PAK4, Homo sapiens, UniProt O96013)", "remaining binding": "77%"}
{"target": "Serine/threonine-protein kinase RIO2 (RIOK2, Homo sapiens, UniProt Q9BVS4)", "remaining binding": "100%"}
{"target": "Mitogen-activated protein kinase kinase kinase 13 (MAP3K13, Homo sapiens, UniProt O43283)", "remaining binding": "100%"}
{"data": "Block 3", "species": "human", "matrix": "microsomes or S9", "concentration": "2 µM", "time": "0.5 h"}
{"Compound": "COc1ccc(CCN[C@H]2CS(=O)(=O)C[C@@H]2S(=O)(=O)c2ccc(F)c(C)c2)cc1OC", "remaining compound [%]": 1.42}
{"Compound": "Cn1nc(CNC(=O)c2cccn(C)c2=O)c2c1CCCC2", "remaining compound [%]": 62.2}
{"Compound": "CC(C)C[C@@H]1N/C(=N/c2ccccc2)N(c2ccccc2)C1=O", "remaining compound [%]": 77.9}
{"Compound": "CN1C(=O)c2cccc3c2C1=Cc1ccc2ccccc2c1O3", "remaining compound [%]": 104}
{"data": "Block 4", "target": "CRBN/Zinc finger protein Helios (Homo sapiens, UniProt Q96SW2+Q9UKS7)", "action": "degrader", "technique": "HiBiT", "cells": "HEK293", "concentration": "10000 nM", "UniProt Q96SW2, sequence (whole entry, looked up)": "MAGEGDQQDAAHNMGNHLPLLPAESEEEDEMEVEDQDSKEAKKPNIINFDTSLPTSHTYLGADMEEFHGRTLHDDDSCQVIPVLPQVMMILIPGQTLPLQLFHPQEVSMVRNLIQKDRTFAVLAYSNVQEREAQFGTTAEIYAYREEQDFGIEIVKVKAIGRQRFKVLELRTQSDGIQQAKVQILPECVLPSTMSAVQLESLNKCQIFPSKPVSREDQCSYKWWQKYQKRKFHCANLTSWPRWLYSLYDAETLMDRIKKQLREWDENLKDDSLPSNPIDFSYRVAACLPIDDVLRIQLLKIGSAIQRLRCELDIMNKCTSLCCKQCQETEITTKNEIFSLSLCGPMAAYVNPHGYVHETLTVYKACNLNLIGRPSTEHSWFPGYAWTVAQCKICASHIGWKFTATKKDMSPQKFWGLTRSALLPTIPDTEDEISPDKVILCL", "UniProt Q9UKS7, sequence (whole entry, looked up)": "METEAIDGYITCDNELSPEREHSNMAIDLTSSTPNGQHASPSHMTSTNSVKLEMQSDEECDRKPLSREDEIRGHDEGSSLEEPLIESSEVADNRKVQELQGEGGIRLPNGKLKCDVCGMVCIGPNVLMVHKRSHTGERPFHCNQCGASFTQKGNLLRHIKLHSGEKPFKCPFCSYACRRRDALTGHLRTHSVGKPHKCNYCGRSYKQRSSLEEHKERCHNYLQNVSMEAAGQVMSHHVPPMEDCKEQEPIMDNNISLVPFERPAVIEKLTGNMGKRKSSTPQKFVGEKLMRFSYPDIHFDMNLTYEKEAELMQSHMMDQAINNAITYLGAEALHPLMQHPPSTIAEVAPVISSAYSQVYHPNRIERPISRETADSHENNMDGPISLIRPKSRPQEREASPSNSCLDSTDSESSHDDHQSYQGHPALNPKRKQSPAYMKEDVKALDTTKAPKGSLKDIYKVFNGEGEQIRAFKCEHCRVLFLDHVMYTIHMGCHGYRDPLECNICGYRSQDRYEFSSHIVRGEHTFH"}
{"Compound": "O=C1CCC(N2Cc3c(ccc4c3OCC43CCC(Cc4ccccc4)CC3)C2=O)C(=O)N1 (centres unmarked)", "protein remaining [%]": 85}
{"Compound": "O=C1CCC(N2Cc3c(ccc4c3OCCC43CCN(Cc4ccccc4)CC3)C2=O)C(=O)N1 (centres unmarked)", "protein remaining [%]": 56.1}
{"Compound": "O=C1CCC(N2Cc3c(ccc4c3OCC43CCC(Oc4ccccc4)CC3)C2=O)C(=O)N1 (centres unmarked)", "protein remaining [%]": 62.2}
{"data": "Further values, each from its own experiment"}
{"SMILES": "C#Cc1cccc(Nc2ncnc3cc(OCCOC)c(OCCOC)cc23)c1", "target": "Cyclin-dependent kinase 9, with cyclin K (CDK9, Homo sapiens, UniProt P50750)", "read-out": "cell-free assay", "concentration": "0.5 µM", "measurement": "remaining signal", "value": "102%"}
{"note": "For quick reference, copied from above (block 2):"}
{"target": "Testis-specific serine/threonine-protein kinase 1 (TSSK1B, Homo sapiens, UniProt Q9BXA7)", "remaining binding": "82%"}
{"target": "Serine/threonine-protein kinase PAK 4 (PAK4, Homo sapiens, UniProt O96013)", "remaining binding": "77%"}
{"target": "Serine/threonine-protein kinase RIO2 (RIOK2, Homo sapiens, UniProt Q9BVS4)", "remaining binding": "100%"}
{"target": "Mitogen-activated protein kinase kinase kinase 13 (MAP3K13, Homo sapiens, UniProt O43283)", "remaining binding": "100%"}
